# Measurements from different studies.
# Lines come from different studies, so protocols differ. ± marks the error that the study gave.
SMILES,target,assay,system,setting,scale,endpoint,value
CC1=C(/C=C/C(C)=C/C=C/C(C)=C/C=O)C(C)(C)CCC1,"Cyclic nucleotide-gated channel alpha-1 (CNGA1, Bos taurus, UniProt Q00194)","ion current, inhibitor, patch clamp",,"200 nM, holding potential +50 mV, together with: cGMP 2 mM",,fast time constant of inhibition,206 s
CC[C@H](C)[C@@H]1NC(=O)[C@H](CC(N)=O)NC(=O)[C@H](Cc2ccc(O)cc2)NC(=O)[C@H](Cc2c[nH]c3ccccc23)NC(=O)[C@H](C)NC(=O)[C@@H](N)CSSC[C@@H]2NC(=O)[C@@H](CSC[C@@H](C(=O)N[C@H]3C(=O)N[C@@H](CC(C)C)C(=O)N[C@H]4C(=O)N[C@@H](C(C)C)C(=O)N[C@@H](CCC(=O)O)C(=O)N[C@@H](CS[C@H]3C)C(=O)N[C@@H](CCSC)C(=O)N3CCC[C@H]3C(=O)N[C@@H](CO)C(=O)N[C@H](C(=O)N[C@@H](CC(N)=O)C(=O)O)CS[C@H]4C)NC(=O)[C@H](Cc3ccc(O)cc3)NC(=O)[C@H](C)NC(=O)CNC(=O)[C@H](CCCCN)NC(=O)[C@H](CC(N)=O)NC(=O)CNC(=O)[C@H](CC(C)C)NC(=O)[C@H](CCCNC(=N)N)NC2=O)NC1=O,PBP1b,transglycosylation,,8 µM,,lipid II level fully inhibited,4 µM
CC[C@H](C)[C@H](NC(C)=O)C(=O)N[C@H]1CSSC[C@@H](C(=O)N[C@H](C(N)=O)[C@@H](C)O)NC(=O)[C@H](CCCNC(=N)N)NC(=O)[C@H](Cc2c[nH]cn2)NC(=O)[C@H](C)NC(=O)CNC(=O)[C@H](Cc2c[nH]c3ccccc23)NC(=O)[C@H](CC(=O)O)NC(=O)[C@H](CCC(N)=O)NC(=O)[C@H](Cc2ccc(O)cc2)NC(=O)[C@H](C(C)C)NC1=O,"Complement C3 (Homo sapiens, UniProt P01024)",ITC,,"pH 7.4, 25 °C",,−TΔS,5.3 kcal/mol
N#CCC(=O)N1CCC[C@H]1Cn1nc(-c2ccc(Oc3ccccc3)cc2F)c2c(N)ncnc21,"Tyrosine-protein kinase BTK (BTK, Homo sapiens, UniProt Q06187)",,,,,residence time,< 6 min
COC(=O)CCSc1nc2n(n1)C(c1cccc(OC)c1)C(C(=O)Nc1cncc(C)c1)=C(C)N2 (stereo not shown),"Serine/threonine-protein kinase mTOR (MTOR, Homo sapiens, UniProt P42345)","enzyme activity, inhibitor, TR-FRET",,3 µM,,inhibition,96.4%
COc1ccc(CCCN[C@H]2CCC[C@@H]2CN[C@H]2CCC[C@@H]2CNCCCCN[C@H]2CCC[C@@H]2CN)cc1,"Lysine-specific histone demethylase 2 (KDM1B, Homo sapiens, UniProt Q8NB78)",peroxidase-coupled,,,relative to: Ki for KDM1B over Ki for LSD1,selectivity ratio,1.8
CNc1ccccc1C(=O)O[C@H]1C[C@H](n2cnc3c(N)ncnc32)O[C@@H]1COP(=O)(O)OP(=O)(O)O,"Unconventional myosin-Va (Gallus gallus, UniProt Q02440, D297C/G292C/I296C/S293C/V295G)",van't Hoff analysis,,together with: 2 mM Mg2+,,ΔG of pocket step,0.9 ± 0.5 kcal/mol
O=C(COc1ccc(F)cc1)N[C@@H](Cc1cn(CCNC(=O)c2ccc(S[C@@H]3O[C@H](CO)[C@H](O)[C@H](O)[C@H]3O)cc2)nn1)C(=O)NCCO,"PA-I galactophilic lectin (lecA, Pseudomonas aeruginosa, UniProt Q05097)","binding, isothermal titration calorimetry",,25 °C,,−TΔS,3.49 ± 0.167 kcal/mol
CCc1cc(C)nc2c(CC(=O)N(CC)CC)c(-c3ccc(OCC[18F])cc3)nn12,"Translocator protein (Tspo, Rattus norvegicus, UniProt P16257)",PET,"rat, C6 glioma, tumour",last 30 min of scan,,tumour uptake,0.2 %ID/cc
CC(C)C[C@H](NC(=O)[C@H](CC(N)=O)NC(=O)[C@H](CCCNC(=N)N)NC(=O)[C@H](CC(=O)O)NC(=O)[C@@H](NC(=O)[C@@H]1CCCN1C(=O)[C@H](CO)NC(=O)[C@@H]1CCCN1)C(C)C)C(=O)N[C@@H](CCCCN)C(=O)N1CCC[C@H]1C(=O)N[C@@H](CC(=O)O)C(=O)N[C@@H](CCCNC(=N)N)C(=O)O,"Growth factor receptor-bound protein 2, C-terminal SH3 domain (GRB2, Homo sapiens, UniProt P62993)","SH3 domain binding, isothermal titration calorimetry",,"concentration not given, C-terminal SH3 domain",,binding,no binding
